Measured values collected from several papers.
A part holds a random share of what one study measured.

Series 1
Target: Ras GTPase-activating protein-binding protein 1, full length (G3BP1, Homo sapiens, UniProt Q13283)
Sequence of UniProt Q13283 (whole entry, looked up): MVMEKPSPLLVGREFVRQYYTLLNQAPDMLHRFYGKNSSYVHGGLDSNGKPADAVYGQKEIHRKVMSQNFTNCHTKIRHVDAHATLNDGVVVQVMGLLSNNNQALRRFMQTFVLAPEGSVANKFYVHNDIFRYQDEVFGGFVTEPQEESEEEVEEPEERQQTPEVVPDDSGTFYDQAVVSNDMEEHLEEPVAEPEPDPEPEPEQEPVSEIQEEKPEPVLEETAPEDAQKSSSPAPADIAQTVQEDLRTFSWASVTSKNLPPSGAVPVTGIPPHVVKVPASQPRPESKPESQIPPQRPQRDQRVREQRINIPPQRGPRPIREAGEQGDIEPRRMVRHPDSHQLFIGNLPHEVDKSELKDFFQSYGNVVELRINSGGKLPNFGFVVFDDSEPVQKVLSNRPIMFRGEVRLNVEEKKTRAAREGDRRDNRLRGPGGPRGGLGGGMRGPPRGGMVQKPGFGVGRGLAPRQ
Technique: RNA Bind-n-Seq
Form: RNA
Matrix: in vitro
Concentration: 200 nM
Setting: whole 134-nt RNA, ends assumed
With: 150 mM KCl
Relative to: input library
Reading: higher = stronger binding
Constant ends, left off below: GGGAGUUCUACAGUCCGACGAUC … UGGAAUUCUCGGGUGUCAAGG
With `GCAGGAAGUAAAAACAAAUGGAAAUGCUUCGGAUAGUGGCAGGGGUGGGGGUUGCUAAAAAAAGGGUGGGAUGGGAGUGGGUAAAGAGUU` the log2 enrichment was 0.661.
`UUUCAAAGCCAAAGGGCCUUGUGACGCCCCUCUUGCCCACCUCCCUCCACACCGUGUCCUCCCCUAUAUGACAAUCAAUGUGACCUCUCU` gave a log2 enrichment of 0.434.
`AGUCCUGUGCUACACAUCGUAUGUACCGAAUCGGGAAAAAGGGAAAGGGAAAAAGGGAAAGUAUUAUGUUACGCCGUUCGGAUCUGCACU` has a log2 enrichment of -0.433.
With `AGUCCUGUGCUACACAUCGUAUGUACCGAAUCGGCCCCCGGGCCCCCGGCCCCCGGGGAAAGUAUUAUGUUACGCCGUUCGGAUCUGCAC` the log2 enrichment was -0.527.
For `GUCCUGUGCUACACAUCGUAUGUACCGAAUCGGGUUUUUGGGUUUUUGGGGUUUUUGGGAAAGUAUUAUGUUACGCCGUUCGGAUCUGCA`, the log2 enrichment was -0.347.
The log2 enrichment of `CCUGUGCUACACAUCGUAUGUACCGAAUCGGGAAAAAAAGGGAAAAAAAGGGUUUUUGGGAAAGUAUUAUGUUACGCCGUUCGGAUCUGC` is reported as -0.818.
The log2 enrichment of `AGUCCUGUGCUACACAUCGUAUGUACCGAAUCGGGGUUUGGGGUUUGGGGUUUGGGGAAAGUAUUAUGUUACGCCGUUCGGAUCUGCACU` is reported as 0.966.
With `UAACUUUAGAGGAGGAACUGAUGGAUAUGGCAGUGGACGUGGAUUUGGGGAUGGCUAUAAUGGGUAUGGAGGAGGACCUGGAGGUGGCAA` the log2 enrichment was 0.393.
The log2 enrichment of `AAGUCCUGUGCUACACAUCGUAUGUACCGAAUCGGCCCCCGGCCCCCGGCCCCCGGGAAAGUAUUAUGUUACGCCGUUCGGAUCUGCACU` is reported as -0.381.

Series 2
Target: RNA binding protein fox-1 homolog 2, RRM domain, GST-SBP tag (RBFOX2, Homo sapiens, UniProt O43251-10, residues 100-194)
Technique: RNA Bind-n-Seq
Form: RNA
Matrix: in vitro
Concentration: 365 nM
Setting: natural RNA segment, single round, ends assumed
Relative to: no-protein control
Reading: higher = stronger binding
Constant ends, left off below: GGGAGUUCUACAGUCCGACGAUC … UGGAAUUCUCGGGUGCCAA
Construct (chain): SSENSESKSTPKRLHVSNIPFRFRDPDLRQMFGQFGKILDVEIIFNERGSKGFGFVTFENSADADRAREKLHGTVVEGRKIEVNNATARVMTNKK
`GUCUGUGUUGUGCCCAAGUGCCUGCGCCACCCCCACCCUCCUGCUGCGCUGACCGCUGCAUGGUGUCGUGACCUGGGCCUCAUUUGUAGCUGCACUGCCUUUCCUUGUCU`: “RBNS enrichment (R)” 0.392.
For `ACUUUGCAUUUAUAAAUUAUAAAUAUUGUACAUGUGUGUAAUUUUUUCAUGUAUUCAUUUGCAGUCUUUGUAUUUAAAAAACAUUUACUGUUAUGUUUGUAUAAUAGAAC`, “RBNS enrichment (R)” read 0.468.
Under “RBNS enrichment (R)”, `UACAAACAAACACAUGGGGAGACUGAAUGAGGAUCAUGAAUACAGCGAAGAGAUCCCUGAAAAGCGGGAGAGGCUGUGUCUGCAGUGUGCAGACUGUGACCCUCGUGUUU` is recorded as 0.417.
For `GUAUUGUGCCUUGUGGUGAGAUAUAAAUUAUGGCCAUGGGAAACAUUGUAUAUUUAGUGUGUGUAUUUUGAUAAUGAUUGAUCUUAAAUCUGUAUACAGAAUAUCAUUGA`, “RBNS enrichment (R)” read 1.14.
For `AAUGAGGACUGACCAUAGUUCUUGUGACUGAGUGUGCUGGCACUGGUGAGCCCAGCCAGCCUGUGCUGAACAGAGGCUUUUCAGGAAGUGCACCACACACACACACACAC`, “RBNS enrichment (R)” read 0.254.
For `CAUUUAAGGACUCUAAGCCAGAAUGGAAAAUUCACCAGGACUCCAUUCUUAAGCCUAUGCGAGUCCCCUAGAGAGAGGCAUUGUACUGAUAUAUAAAUAUUAUAUAAUAU`, “RBNS enrichment (R)” read 0.682.
`AUCUAAUUAACACAGCACAUUGUACUAAUGACUAGGAGUAGCAGCUUUUUCUUCUCUCCCUCUAUGAAUUCUUAUAAUGUCCCUUUUUCUGUAAGUUUUUGAGAGGCAAU` — result for “RBNS enrichment (R)”: 1.43.
`AAUCACAGGAAGUGAAGAACAUUUCAUUUAUCUGUUCUAAAAUUUCUGCUGUCAGAGUGUCUAAGAGACCCAGUUGGGCUGAAAGACAUGCUCUGUGCACAGGCACAGAG` — result for “RBNS enrichment (R)”: 0.298.
Under “RBNS enrichment (R)”, `GGUUGUGUGUGUAUUGUGUAUAUACCUCAAGUUCAAGUUAAUGGCAUUGAUUUAUGUUCCAGACAAAAAUAACACAAAUAAUAAUAUCCUUCGUUAUAACCACAAUGAGA` is recorded as 0.296.
For `CGCUGCCUGACCACAGCAACCCCCUCCCGUGCGGCAGACGUCACUCCUCGCAUCGUGAGCUGAGGCUGCAGCAUUGGAACAAAACAGCAUUACAUCACUUUUCCUUUAAU`, “RBNS enrichment (R)” read 10.6.
`AAACAACCACAGAAACAUCUCUCCUUUGUGUAUUUUUCCCUCCCCCACCUUUCACCCCACAGUGGUUUUCAAUUAGUAUUUAUUCCAUGGUGGAGUCUGUGAGGCUAGAA` — result for “RBNS enrichment (R)”: 0.815.
For `UGAUAAGCACUUGGAGGGGGACUUGGAAGGUGAGAAAGAUACUGCAUUUUCUCAUGAGUCUCCAAGCCCACUUGAAAAGUCACACUGAAAGGAUGCAAAUAGCCGUCUGC`, “RBNS enrichment (R)” read 0.397.

Series 3
Target: Interferon regulatory factor 7, full length, phosphomimetic (IRF7, Homo sapiens, UniProt Q92985, residues 1-503, S101K/S471D/S472D/S475D/S476D/S477D/S483D/S484D/S487D)
Technique: protein-binding microarray
Form: double-stranded DNA, one strand shown
Matrix: in vitro
Concentration: 250 nM
Setting: 60-bp whole probe
With: salmon DNA 0.4 mg/ml
Relative to: random background probes
Reading: higher = stronger binding
Constant ends, left off below: GCCTAGCAC … GTGCTAGGTCTTGATTCGCTTGACGCTGCTG
Target sequence (chain): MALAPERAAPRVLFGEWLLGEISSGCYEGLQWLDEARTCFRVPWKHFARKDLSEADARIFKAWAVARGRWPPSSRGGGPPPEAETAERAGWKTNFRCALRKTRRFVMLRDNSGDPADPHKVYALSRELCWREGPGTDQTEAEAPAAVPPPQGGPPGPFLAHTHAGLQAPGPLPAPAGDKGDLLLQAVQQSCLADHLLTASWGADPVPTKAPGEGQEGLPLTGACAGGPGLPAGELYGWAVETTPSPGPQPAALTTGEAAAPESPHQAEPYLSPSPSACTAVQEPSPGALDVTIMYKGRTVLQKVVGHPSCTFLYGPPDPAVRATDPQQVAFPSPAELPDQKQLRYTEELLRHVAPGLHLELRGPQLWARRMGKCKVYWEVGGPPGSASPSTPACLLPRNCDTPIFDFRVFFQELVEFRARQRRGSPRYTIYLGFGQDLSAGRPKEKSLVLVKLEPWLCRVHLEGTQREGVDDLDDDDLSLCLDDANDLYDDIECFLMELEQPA
`TCATCCATCACTTTCCAACT` has a log fluorescence of 0.612 z-score.
`TACGGTCTCGGTTTCGGGAC` gave a log fluorescence of 7.91 z-score.
With `AGAAATTTCTTTCTAATTCA` the log fluorescence was 0.51 z-score.
With `TTAGATCACAGTCTCGATTA` the log fluorescence was 1.33 z-score.
With `TTAGGTATCGGTTTCGGGTA` the log fluorescence was 7.8 z-score.
The log fluorescence of `TCAGTTTTTCATTTTGTACT` is reported as 1.99 z-score.

Other studies, line by line
`PhoQ, residues 284 288 289 292 302 303 NLSRDF` gave a fold induction of 21.7 (PhoP, residues 12 14 15 18 19 LWHSL (Escherichia coli, UniProt P23836); Sort-seq, item: YFP reporter; E. coli; PhoQ-PhoP variant library, with: 10 µM Mg2+; relative to: high Mg2+ state, higher = stronger signaling).

For quick reference, copied from above (series 3):
`TACGGTCTCGGTTTCGGGAC` gave a log fluorescence of 7.91 z-score.
With `TTAGATCACAGTCTCGATTA` the log fluorescence was 1.33 z-score.
With `AGAAATTTCTTTCTAATTCA` the log fluorescence was 0.51 z-score.
